Experimental data gathered from unrelated publications.
Numbered parts are unrelated; each lists some results of a single study.
Chain of UniProt Q96BR1 (whole entry, looked up): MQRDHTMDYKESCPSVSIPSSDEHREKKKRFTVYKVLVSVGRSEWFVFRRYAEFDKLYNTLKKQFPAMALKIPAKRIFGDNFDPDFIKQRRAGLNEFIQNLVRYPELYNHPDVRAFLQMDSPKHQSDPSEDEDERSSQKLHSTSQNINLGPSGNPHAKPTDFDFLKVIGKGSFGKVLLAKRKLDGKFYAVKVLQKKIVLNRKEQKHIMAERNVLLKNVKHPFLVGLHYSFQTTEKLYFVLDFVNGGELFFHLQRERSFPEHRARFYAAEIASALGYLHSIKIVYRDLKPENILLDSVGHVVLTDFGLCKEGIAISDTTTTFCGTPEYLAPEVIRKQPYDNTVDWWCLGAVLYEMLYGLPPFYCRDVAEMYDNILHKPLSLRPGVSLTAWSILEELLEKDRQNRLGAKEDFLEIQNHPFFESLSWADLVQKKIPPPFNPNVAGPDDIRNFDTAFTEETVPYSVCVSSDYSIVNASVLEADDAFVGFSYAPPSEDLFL
Chain of UniProt P54756 (whole entry, looked up): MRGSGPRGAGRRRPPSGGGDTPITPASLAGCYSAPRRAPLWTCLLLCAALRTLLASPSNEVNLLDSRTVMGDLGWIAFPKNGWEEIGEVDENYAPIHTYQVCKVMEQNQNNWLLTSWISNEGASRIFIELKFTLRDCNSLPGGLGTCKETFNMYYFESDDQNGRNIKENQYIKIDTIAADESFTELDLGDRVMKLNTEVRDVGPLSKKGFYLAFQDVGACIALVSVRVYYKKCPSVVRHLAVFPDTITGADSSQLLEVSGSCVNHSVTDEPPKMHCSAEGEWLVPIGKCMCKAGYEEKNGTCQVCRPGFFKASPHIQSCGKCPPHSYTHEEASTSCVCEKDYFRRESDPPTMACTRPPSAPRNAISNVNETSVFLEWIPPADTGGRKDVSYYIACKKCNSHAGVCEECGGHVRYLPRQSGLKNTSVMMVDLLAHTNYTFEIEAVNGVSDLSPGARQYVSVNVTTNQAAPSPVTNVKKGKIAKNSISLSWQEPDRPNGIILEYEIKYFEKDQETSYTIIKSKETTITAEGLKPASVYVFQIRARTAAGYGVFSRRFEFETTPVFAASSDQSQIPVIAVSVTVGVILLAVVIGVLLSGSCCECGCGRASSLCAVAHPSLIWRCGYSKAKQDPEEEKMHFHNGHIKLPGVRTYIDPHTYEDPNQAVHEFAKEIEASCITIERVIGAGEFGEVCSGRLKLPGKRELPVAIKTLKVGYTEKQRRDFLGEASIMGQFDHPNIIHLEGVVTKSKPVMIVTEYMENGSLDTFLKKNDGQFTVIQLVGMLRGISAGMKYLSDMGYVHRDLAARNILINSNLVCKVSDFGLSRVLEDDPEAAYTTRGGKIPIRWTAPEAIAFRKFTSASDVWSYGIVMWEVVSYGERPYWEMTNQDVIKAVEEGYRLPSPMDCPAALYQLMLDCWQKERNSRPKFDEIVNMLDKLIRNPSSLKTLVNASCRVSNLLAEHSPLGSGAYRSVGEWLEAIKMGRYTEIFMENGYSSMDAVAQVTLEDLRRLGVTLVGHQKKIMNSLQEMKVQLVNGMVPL
Chain of UniProt P48729 (whole entry, looked up): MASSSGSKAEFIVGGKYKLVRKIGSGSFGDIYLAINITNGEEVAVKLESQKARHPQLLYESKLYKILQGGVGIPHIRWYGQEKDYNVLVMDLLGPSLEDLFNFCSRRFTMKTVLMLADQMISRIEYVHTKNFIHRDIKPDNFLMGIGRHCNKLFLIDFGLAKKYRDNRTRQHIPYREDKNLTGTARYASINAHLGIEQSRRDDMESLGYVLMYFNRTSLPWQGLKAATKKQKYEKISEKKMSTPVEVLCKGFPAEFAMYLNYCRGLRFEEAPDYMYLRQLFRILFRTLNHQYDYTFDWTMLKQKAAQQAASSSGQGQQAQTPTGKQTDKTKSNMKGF
Chain of UniProt P54762 (whole entry, looked up): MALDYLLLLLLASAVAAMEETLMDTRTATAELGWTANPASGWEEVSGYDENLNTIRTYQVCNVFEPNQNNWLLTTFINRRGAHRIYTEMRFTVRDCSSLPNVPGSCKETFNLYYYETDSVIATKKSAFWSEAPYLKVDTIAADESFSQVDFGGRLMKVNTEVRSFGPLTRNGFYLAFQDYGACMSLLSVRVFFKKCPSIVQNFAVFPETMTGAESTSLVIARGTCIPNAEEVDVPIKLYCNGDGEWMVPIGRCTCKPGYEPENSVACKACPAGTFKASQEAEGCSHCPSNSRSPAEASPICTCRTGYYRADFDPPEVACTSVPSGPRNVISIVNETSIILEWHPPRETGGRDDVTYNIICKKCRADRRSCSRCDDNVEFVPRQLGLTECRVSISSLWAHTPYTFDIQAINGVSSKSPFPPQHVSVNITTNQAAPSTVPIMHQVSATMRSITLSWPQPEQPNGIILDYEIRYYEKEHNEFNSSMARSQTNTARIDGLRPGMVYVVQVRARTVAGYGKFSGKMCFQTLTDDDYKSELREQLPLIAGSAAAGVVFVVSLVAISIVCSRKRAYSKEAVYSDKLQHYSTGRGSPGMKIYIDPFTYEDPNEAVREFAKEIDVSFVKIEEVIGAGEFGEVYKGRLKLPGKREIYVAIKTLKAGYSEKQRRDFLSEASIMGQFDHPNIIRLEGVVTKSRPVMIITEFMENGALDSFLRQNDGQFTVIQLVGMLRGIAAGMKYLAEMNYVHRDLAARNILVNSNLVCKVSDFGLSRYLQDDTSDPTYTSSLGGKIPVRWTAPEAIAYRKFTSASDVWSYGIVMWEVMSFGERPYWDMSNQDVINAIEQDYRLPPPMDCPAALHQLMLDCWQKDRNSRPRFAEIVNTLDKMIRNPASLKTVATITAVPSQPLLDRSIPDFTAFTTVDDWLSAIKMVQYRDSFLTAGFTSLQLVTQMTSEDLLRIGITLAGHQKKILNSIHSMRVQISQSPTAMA
Chain of UniProt Q92772 (whole entry, looked up): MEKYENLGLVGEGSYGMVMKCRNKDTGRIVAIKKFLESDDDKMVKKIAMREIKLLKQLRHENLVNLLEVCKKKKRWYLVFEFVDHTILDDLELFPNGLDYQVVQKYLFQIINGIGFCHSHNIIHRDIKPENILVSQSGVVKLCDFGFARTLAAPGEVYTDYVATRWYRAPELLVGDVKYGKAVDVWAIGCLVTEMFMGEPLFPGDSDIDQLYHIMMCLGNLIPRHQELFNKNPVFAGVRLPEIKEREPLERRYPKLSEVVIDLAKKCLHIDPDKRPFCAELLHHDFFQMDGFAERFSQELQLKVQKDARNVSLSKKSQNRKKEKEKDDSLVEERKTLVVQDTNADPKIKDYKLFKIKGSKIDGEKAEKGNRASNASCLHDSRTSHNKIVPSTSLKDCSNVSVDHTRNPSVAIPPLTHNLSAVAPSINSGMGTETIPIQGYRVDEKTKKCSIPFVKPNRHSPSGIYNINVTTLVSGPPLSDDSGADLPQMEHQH
Chain of UniProt O14733 (whole entry, looked up): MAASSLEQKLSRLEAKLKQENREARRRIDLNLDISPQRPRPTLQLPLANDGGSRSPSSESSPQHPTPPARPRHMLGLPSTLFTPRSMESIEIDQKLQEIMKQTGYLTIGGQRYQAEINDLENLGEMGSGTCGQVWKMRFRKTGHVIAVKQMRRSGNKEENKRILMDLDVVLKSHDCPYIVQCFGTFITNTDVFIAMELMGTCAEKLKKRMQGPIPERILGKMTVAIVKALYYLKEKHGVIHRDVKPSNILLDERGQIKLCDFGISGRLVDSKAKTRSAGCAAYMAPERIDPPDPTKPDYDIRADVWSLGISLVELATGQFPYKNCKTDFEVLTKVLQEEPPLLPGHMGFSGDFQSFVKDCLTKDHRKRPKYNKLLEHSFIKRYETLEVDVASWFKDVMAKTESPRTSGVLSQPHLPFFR
Chain of UniProt Q9NSY1 (whole entry, looked up): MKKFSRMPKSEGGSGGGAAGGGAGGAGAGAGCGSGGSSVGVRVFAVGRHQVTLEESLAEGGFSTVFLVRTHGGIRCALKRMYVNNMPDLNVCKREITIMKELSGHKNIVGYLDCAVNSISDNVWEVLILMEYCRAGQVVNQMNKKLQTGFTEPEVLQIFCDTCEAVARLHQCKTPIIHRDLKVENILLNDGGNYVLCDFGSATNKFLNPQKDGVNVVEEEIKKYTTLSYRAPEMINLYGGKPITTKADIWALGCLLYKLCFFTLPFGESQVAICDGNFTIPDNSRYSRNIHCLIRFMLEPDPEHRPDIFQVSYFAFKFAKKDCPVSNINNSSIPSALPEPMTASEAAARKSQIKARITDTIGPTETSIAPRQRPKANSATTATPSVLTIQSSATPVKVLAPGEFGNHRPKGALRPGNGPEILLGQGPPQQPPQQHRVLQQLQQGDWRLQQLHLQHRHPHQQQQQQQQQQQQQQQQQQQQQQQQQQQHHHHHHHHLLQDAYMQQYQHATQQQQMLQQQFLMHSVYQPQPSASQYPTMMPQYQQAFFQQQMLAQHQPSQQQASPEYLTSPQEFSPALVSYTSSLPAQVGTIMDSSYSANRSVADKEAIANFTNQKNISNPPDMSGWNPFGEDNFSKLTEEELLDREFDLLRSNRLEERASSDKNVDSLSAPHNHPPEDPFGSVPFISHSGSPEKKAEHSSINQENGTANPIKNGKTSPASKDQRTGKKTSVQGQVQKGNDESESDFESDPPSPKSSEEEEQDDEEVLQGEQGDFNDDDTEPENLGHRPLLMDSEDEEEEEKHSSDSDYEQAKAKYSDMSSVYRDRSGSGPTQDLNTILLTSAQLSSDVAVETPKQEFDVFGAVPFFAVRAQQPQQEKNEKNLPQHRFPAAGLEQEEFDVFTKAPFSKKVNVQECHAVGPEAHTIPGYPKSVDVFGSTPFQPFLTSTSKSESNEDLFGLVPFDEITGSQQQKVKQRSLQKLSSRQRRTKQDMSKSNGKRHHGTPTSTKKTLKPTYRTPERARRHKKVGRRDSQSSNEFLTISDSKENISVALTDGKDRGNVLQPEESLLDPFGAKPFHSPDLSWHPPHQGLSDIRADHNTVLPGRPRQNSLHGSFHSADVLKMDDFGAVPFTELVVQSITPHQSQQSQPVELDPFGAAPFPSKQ

Series 1
SMILES: CN1CCN(C(=O)c2ccc(NC(=O)Nc3ccc(N(C)c4ccnc(Nc5ccc(CS(C)(=O)=O)cc5)n4)cc3)cc2)CC1
Effect on: binding
Concentration: 1 µM
target | technique | remaining binding [%]
Serine/threonine-protein kinase MARK1 (MARK1, Homo sapiens, UniProt Q9P0L2) |  | 44
Phosphorylase b kinase gamma catalytic chain, liver/testis isoform (PHKG2, Homo sapiens, UniProt P15735) |  | 100
Calcium/calmodulin-dependent protein kinase type 1G (CAMK1G, Homo sapiens, UniProt Q96NX5) |  | 88
Myosin-IIIb (MYO3B, Homo sapiens, UniProt Q8WXR4) | competition with immobilised ligand | 23
Epidermal growth factor receptor (EGFR, Homo sapiens, UniProt P00533, L858R/T790M) |  | 55
Wee1-like protein kinase (WEE1, Homo sapiens, UniProt P30291) | competition with immobilised ligand | 100
Tyrosine-protein kinase Srms (SRMS, Homo sapiens, UniProt Q9H3Y6) | competition with immobilised ligand | 77
Cyclin-dependent kinase-like 2 (CDKL2, Homo sapiens, UniProt Q92772) | competition with immobilised ligand | 1.7
Serine/threonine-protein kinase SBK1 (SBK1, Homo sapiens, UniProt Q52WX2) | competition with immobilised ligand | 65
Tyrosine-protein kinase ABL1 (ABL1, Homo sapiens, UniProt P00519, M351T) |  | 20
Phosphatidylinositol 4,5-bisphosphate 3-kinase catalytic subunit alpha isoform (PIK3CA, Homo sapiens, UniProt P42336, C420R) |  | 100
BMP-2-inducible protein kinase (BMP2K, Homo sapiens, UniProt Q9NSY1) |  | 2.4

Series 2
Compound: COc1ccc2cc(OCC3(C(=O)O)CN(C(=O)c4ccc(F)cc4)C3)ccc2c1
Effect on: cell-free assay
Technique: competition with immobilised ligand
Concentration: 1 µM
target | remaining binding [%]
cGMP-dependent protein kinase 1 (PRKG1, Homo sapiens, UniProt Q13976) | 100
Hepatocyte growth factor receptor (MET, Homo sapiens, UniProt P08581) | 100
Ephrin type-B receptor 1 (EPHB1, Homo sapiens, UniProt P54762) | 100
Mast/stem cell growth factor receptor Kit (KIT, Homo sapiens, UniProt P10721, V559D/V654A) | 100
Dual specificity mitogen-activated protein kinase kinase 7 (MAP2K7, Homo sapiens, UniProt O14733) | 79
Serine/threonine-protein kinase PAK 2 (PAK2, Homo sapiens, UniProt Q13177) | 83
Tyrosine-protein kinase ABL1, non-phosphorylated (ABL1, Homo sapiens, UniProt P00519, H396P) | 74
Ephrin type-A receptor 5 (EPHA5, Homo sapiens, UniProt P54756) | 78
Tyrosine-protein kinase ABL1, non-phosphorylated (ABL1, Homo sapiens, UniProt P00519) | 78
Cyclin-dependent kinase-like 1 (CDKL1, Homo sapiens, UniProt Q00532) | 100
Epithelial discoidin domain-containing receptor 1 (DDR1, Homo sapiens, UniProt Q08345) | 100
Fibroblast growth factor receptor 4 (FGFR4, Homo sapiens, UniProt P22455) | 100
Serine/threonine-protein kinase LATS2 (LATS2, Homo sapiens, UniProt Q9NRM7) | 90
Casein kinase I isoform alpha (CSNK1A1, Homo sapiens, UniProt P48729) | 100
Epidermal growth factor receptor (EGFR, Homo sapiens, UniProt P00533, L861Q) | 100
Protein kinase C delta type (PRKCD, Homo sapiens, UniProt Q05655) | 100
Epidermal growth factor receptor (EGFR, Homo sapiens, UniProt P00533, del752-759) | 100
Receptor tyrosine-protein kinase erbB-3 (ERBB3, Homo sapiens, UniProt P21860) | 89
Phosphatidylinositol 4-phosphate 3-kinase C2 domain-containing subunit beta (PIK3C2B, Homo sapiens, UniProt O00750) | 100
Serine/threonine-protein kinase Sgk3 (SGK3, Homo sapiens, UniProt Q96BR1) | 100
Calcium/calmodulin-dependent protein kinase type II subunit alpha (CAMK2A, Homo sapiens, UniProt Q9UQM7) | 100
Uncharacterized serine/threonine-protein kinase SBK3 (SBK3, Homo sapiens, UniProt P0C264) | 100

Series 3
Cell line: A-375
Concentration: 100 µM
Time: 36 h
SMILES | viability [%]
CN(C)CCN(Cc1ccc(Cl)cc1)c1ccccn1 | 75.4
Nc1ccn([C@@H]2O[C@H](CO)[C@@H](O)[C@@H]2O)c(=O)n1 | 28.7
CO[C@H]1C[C@@H]2CC[C@@H](C)[C@@](O)(O2)C(=O)C(=O)N2CCCC[C@H]2C(=O)O[C@H]([C@H](C)C[C@@H]2CC[C@@H](OC(=O)C(C)(CO)CO)[C@H](OC)C2)CC(=O)[C@H](C)/C=C(\C)[C@@H](O)[C@@H](OC)C(=O)[C@H](C)C[C@H](C)/C=C/C=C/C=C/1C | 29.9
O=C(O)Cc1cc(I)c(Oc2ccc(O)c(I)c2)c(I)c1 | 55.4
[H]/N=C(/N)NS(=O)(=O)c1ccc(N)cc1 | 118
O=C1OC(CN2CCOCC2)CN1/N=C/c1ccc([N+](=O)[O-])o1 (centres unmarked) | 36.2
CCOc1ccc(Cc2cc([C@@H]3O[C@H](CO)[C@@H](O)[C@H](O)[C@H]3O)ccc2Cl)cc1 | 94.9
COc1cc2ccc(=O)oc2cc1OC | 110
C[C@H]1C[C@@H]2[C@H]([C@@H](O)C[C@@]3(C)[C@H]2CC[C@]3(O)C(=O)CO)[C@@]2(C)C=CC(=O)C=C12 | 112
Cc1[nH]c2ccccc2c1CCNCc1ccc(/C=C/C(=O)NO)cc1 | 10.2
CC[C@H]1OC(=O)[C@H](C)[C@@H](O[C@H]2C[C@@](C)(OC)[C@@H](O)[C@H](C)O2)[C@H](C)[C@@H](O[C@@H]2O[C@H](C)C[C@H](N(C)C)[C@H]2O)[C@](C)(O)C[C@@H](C)C(=O)[C@H](C)[C@@H](O)[C@]1(C)O | 72.1

Series 4
Species: human
Sample: microsomes or S9
Concentration: 2 µM
Time: 0.5 h
Structure (SMILES) | remaining compound
OCC1(COc2ccccc2-c2nncn2-c2ccccc2)COC1 | > 100%
CN1CCc2c(c3ccccc3n2-c2cncnc2)C1 | 69.3%
CCOc1ccc(N2C(=O)c3c(C(=O)OC)ncn3CC2(C)C(=O)NC2CCCCCC2)cc1 (centres unmarked) | 40.8%
Nc1c(Br)cc(O)cc1Br | 83.8%
CC(C)(C)c1ccc(Oc2ccc(N)c(Cl)c2)cc1 | 76.4%
Cc1ccc2[nH]cc(CCNC(=O)Nc3ccc(Cl)c(Cl)c3)c2c1 | 41.9%
COc1ccc(-c2[nH]ncc2C(=O)Nc2n[nH]c3cc(Br)ccc23)cc1 | 54.4%
Nc1nc(-c2ccc(F)cc2)nc2oc(-c3ccccc3)nc12 | 86.3%
Cn1nc(C2CCCN2C(=O)COc2ccc(F)cc2)c2c1CCOC2 (centres unmarked) | 65.8%
CCc1cc(Nc2nc(Cl)ncc2OC)n[nH]1 | 38.4%
O=C(O)C[C@]1(C(=O)NCc2ccccc2)CC(/C=C/c2ccccc2)=NO1 | > 100%
O=C(NCCCN1CCCC1=O)C1CCCN1c1nnc(N2CCCC2=O)s1 (centres unmarked) | > 99%
COCCn1c(C)cc(C)c(C(=O)Nc2nc(COC)n[nH]2)c1=O | 88.3%
O=C(NC1CCCc2ccccc21)c1ccc(CS(=O)(=O)c2ccc(Br)cc2)o1 (centres unmarked) | 26.8%

For quick reference, copied from above (series 1):
target | technique | remaining binding [%]
Wee1-like protein kinase (WEE1, Homo sapiens, UniProt P30291) | competition with immobilised ligand | 100
BMP-2-inducible protein kinase (BMP2K, Homo sapiens, UniProt Q9NSY1) |  | 2.4
Serine/threonine-protein kinase MARK1 (MARK1, Homo sapiens, UniProt Q9P0L2) |  | 44
Calcium/calmodulin-dependent protein kinase type 1G (CAMK1G, Homo sapiens, UniProt Q96NX5) |  | 88
